Assay results pooled from the literature.
Lines come from different studies, so protocols differ. ± marks the error that the study gave.
rep main protease: Replicase polyprotein 1ab, main protease (rep, Severe acute respiratory syndrome coronavirus 2, UniProt P0DTD1)
rep nsp14 N7-methyltransferase: Replicase polyprotein 1ab, nsp14 N7-methyltransferase (rep, Severe acute respiratory syndrome coronavirus 2, UniProt P0DTD1)

O=C(c1ccc2c(c1)COC2)N1CCCC[C@H](C2CN(C(=O)c3cncc4[nH]cnc34)C2)C1  inhibition (rep main protease; enzyme activity, inhibitor; 5 µM): 18.4%
CC[C@H](C)[C@H](NC(=O)[C@H](CC(C)C)NC(=O)[C@H](Cc1c[nH]c2ccccc12)NC(=O)[C@H](CCC(N)=O)NC(=O)[C@@H](NC(=O)[C@H](Cc1ccccc1)NC(=O)[C@H](C)NC(=O)[C@H](CCCCNC(=O)COCCOCCNC(=O)COCCOCCNC(=O)CC[C@H](NC(=O)CCCCCCCCCCCCCCCCCCC(=O)O)C(=O)O)NC(=O)[C@H](CCC(N)=O)NC(=O)[C@H](C)NC(=O)[C@@H](NC(=O)[C@H](CCCCN)NC(=O)[C@H](CC(=O)O)NC(=O)[C@H](CC(C)C)NC(=O)C(C)(C)NC(=O)[C@@H](NC(=O)[C@H](CO)NC(=O)[C@H](Cc1ccc(O)cc1)NC(=O)[C@H](CC(=O)O)NC(=O)[C@H](CO)NC(=O)[C@@H](NC(=O)[C@H](Cc1ccccc1)NC(=O)[C@@H](NC(=O)CNC(=O)[C@H](CCC(=O)O)NC(=O)C(C)(C)NC(=O)[C@@H](N)Cc1ccc(O)cc1)[C@@H](C)O)[C@@H](C)O)[C@@H](C)CC)[C@@H](C)CC)C(C)C)C(=O)N[C@@H](C)C(=O)NCC(=O)NCC(=O)N1CCC[C@H]1C(=O)N[C@@H](CO)C(=O)N[C@@H](CO)C(=O)NCC(=O)N[C@@H](C)C(=O)N1CCC[C@H]1C(=O)N1CCC[C@H]1C(=O)N1CCC[C@H]1C(=O)N[C@@H](CO)C(N)=O  serum ALT (patients with type 2 diabetes, serum; 0.5 mg, baseline, proof of concept): 29.8 ± 19.9 U/L
N=C(N)c1ccccc1  inhibition (rep main protease; reporter gene (Gaussia luciferase), inhibitor; 20 µM): -0.151%
Nc1ncnc2c([C@@H]3N[C@H](CO)[C@@H](O)[C@H]3O)c[nH]c12  infected cells (Marburg virus; viral replication, antibody staining; HeLa, Musoke; 25 µM, 24 h): 4.6%
Cc1ccc(C(C)(C)C(=O)NC[C@H](NC(=O)c2cccnc2)c2ccc3ccccc3c2)cc1  inhibition (rep main protease; enzyme activity, inhibitor; 5 µM, run 1): 10.2%
catechin gallate  kinact/KI (rep main protease; inactivator): 4.2 M⁻¹ s⁻¹
N#CC(C(N)=O)=C1Oc2c(cc(O)cc2-c2ccc(Cl)c(Cl)c2)S1  Hill slope (rep nsp14 N7-methyltransferase; N7-methyltransferase activity, inhibitor, Py-FLINT): 1.51 ± 0.22
Cc1cc(N[C@H]2C[C@H]3CC[C@@H]2N(C(=O)c2cnc4[nH]cc(C)c4c2)C3)nc(-c2cccnc2)n1  inhibition (rep main protease; enzyme activity, inhibitor; 5 µM, run 2): 16.9%
CC1=CC(=O)[C@@H](O)[C@]2(C)[C@H]3[C@@H](O)[C@H](O)[C@@]4(C)OC[C@@]35[C@@H](C[C@@H]12)OC(=O)[C@H](O)[C@]54O  activity (Replicase polyprotein 1ab, papain-like protease (rep, Severe acute respiratory syndrome coronavirus 2, UniProt P0DTD1); enzyme activity; concentration not given): inactive
Cn1cc(C(=O)Nc2nc(-c3ccccn3)cs2)c2ccccc2c1=O  Hill slope (rep nsp14 N7-methyltransferase; N7-methyltransferase activity, inhibitor, Py-FLINT): 1.16 ± 0.2
Cc1nn(-c2ccc(Cl)cc2)c2c1C(c1ccc(Cl)cc1Cl)C(C#N)=C(N)O2 (stereo not shown)  inhibition (rep main protease; 3CL protease activity; 0.01 µg/mL, 90 min, enzyme 10 ng/mL): 28.5%
Cc1cc(=O)[nH]cc1C(=O)N1C[C@@]23CCCC[C@@]2(CN(C(=O)C[C@H]2NC(=O)NC2=O)C3)C1  inhibition (rep main protease; enzyme activity, inhibitor; 5 µM, run 1): 12.9%
Cc1ccccc1C1CC(=O)c2c(C)nc(N)nc2C1 (stereo not shown)  log fold enrichment (Replicase polyprotein 1ab, nsp13 helicase (rep, Severe acute respiratory syndrome coronavirus 2, UniProt P0DTD1); binding, affinity selection mass spectrometry; reference: other proteins in batch): -0.0483
CC#CCn1c(N2CCC[C@@H](N)C2)nc2c1c(=O)n(Cc1nc(C)c3ccccc3n1)c(=O)n2C  inhibition (rep main protease; reporter gene (Gaussia luciferase), inhibitor; 20 µM): -0.825%
O=C1NC(=O)[C@@H](CC(=O)N2C[C@H](CO)C3(C2)CN(C(=O)c2cc4ccc(O)cc4[nH]2)C3)N1  inhibition (rep main protease; enzyme activity, inhibitor; 5 µM, mean of runs): 15.4%
O=C(/C=C/c1ccc(O)c(O)c1/C=C/c1ccc(O)c(O)c1)O[C@H](Cc1ccc(O)c(O)c1)C(=O)O  inhibition (rep main protease; reporter gene (Gaussia luciferase), inhibitor; 20 µM): -1.89%
O=C(NC1CCCc2c1[nH]c1ccccc21)c1cc(=O)[nH]c2ccccc12 (stereo not shown)  Hill slope (rep nsp14 N7-methyltransferase; N7-methyltransferase activity, inhibitor, Py-FLINT): 1.3 ± 0.1
CC(C)(C)NC(=O)[C@@H]1C[C@@H]2CCCC[C@@H]2CN1C[C@@H](O)[C@H](Cc1ccccc1)NC(=O)[C@H](CC(N)=O)NC(=O)c1ccc2ccccc2n1  inhibition (rep main protease; reporter gene (mKate2), inhibitor; 20 µM): 0.536%
Cn1cnc(Cn2c(=O)[nH]/c(=N\c3cc4cn(C)nc4cc3Cl)n(Cc3cc(F)c(F)cc3F)c2=O)n1  MRT (human, severe renal impairment, plasma; oral, 375 mg single dose): 105 h

Excerpt of the above:
CC[C@H](C)[C@H](NC(=O)[C@H](CC(C)C)NC(=O)[C@H](Cc1c[nH]c2ccccc12)NC(=O)[C@H](CCC(N)=O)NC(=O)[C@@H](NC(=O)[C@H](Cc1ccccc1)NC(=O)[C@H](C)NC(=O)[C@H](CCCCNC(=O)COCCOCCNC(=O)COCCOCCNC(=O)CC[C@H](NC(=O)CCCCCCCCCCCCCCCCCCC(=O)O)C(=O)O)NC(=O)[C@H](CCC(N)=O)NC(=O)[C@H](C)NC(=O)[C@@H](NC(=O)[C@H](CCCCN)NC(=O)[C@H](CC(=O)O)NC(=O)[C@H](CC(C)C)NC(=O)C(C)(C)NC(=O)[C@@H](NC(=O)[C@H](CO)NC(=O)[C@H](Cc1ccc(O)cc1)NC(=O)[C@H](CC(=O)O)NC(=O)[C@H](CO)NC(=O)[C@@H](NC(=O)[C@H](Cc1ccccc1)NC(=O)[C@@H](NC(=O)CNC(=O)[C@H](CCC(=O)O)NC(=O)C(C)(C)NC(=O)[C@@H](N)Cc1ccc(O)cc1)[C@@H](C)O)[C@@H](C)O)[C@@H](C)CC)[C@@H](C)CC)C(C)C)C(=O)N[C@@H](C)C(=O)NCC(=O)NCC(=O)N1CCC[C@H]1C(=O)N[C@@H](CO)C(=O)N[C@@H](CO)C(=O)NCC(=O)N[C@@H](C)C(=O)N1CCC[C@H]1C(=O)N1CCC[C@H]1C(=O)N1CCC[C@H]1C(=O)N[C@@H](CO)C(N)=O  serum ALT (patients with type 2 diabetes, serum; 0.5 mg, baseline, proof of concept): 29.8 ± 19.9 U/L
O=C(/C=C/c1ccc(O)c(O)c1/C=C/c1ccc(O)c(O)c1)O[C@H](Cc1ccc(O)c(O)c1)C(=O)O  inhibition (rep main protease; reporter gene (Gaussia luciferase), inhibitor; 20 µM): -1.89%
